Results of several laboratories.
Protocols differ between the studies behind these lines. “And” joins repeats or separate records; there may be more than shown. ± gives the spread as reported.

Structure (SMILES)	assay	system	setting	endpoint	result
CC(C)[C@H](NC(=O)CNC(=O)[C@H](CCC(N)=O)NC(=O)[C@H](C)N)C(=O)O	–	human	3 mg/kg single dose	subjects with serious adverse events	0%
CN(C)C(CNC(=O)Nc1cc(C(F)(F)F)ccc1N1CCOCC1)c1ccncc1 (stereo not drawn)	–	mouse, serum	intraperitoneal, 360 mg/kg single dose	serum total bilirubin	0.4 mg/dL
COc1cc(NC(=O)C(=O)c2c(C)n(Cc3ccc(Cl)cc3)c3ccc(C)cc23)ccn1	–	cynomolgus monkey, female, plasma	intravenous, 1 mg/kg	Vc	0.401 L/kg and 0.385 L/kg and 0.453 L/kg and 0.494 L/kg and 0.383 L/kg and 0.347 L/kg
CC[C@H](C)[C@@H]1NC(=O)[C@H](CCCCN)NC(=O)[C@H](CCCCN)NC(=O)[C@H](Cc2ccc(O)cc2)NC(=O)[C@H](CC(C)C)NC(=O)[C@@H]2CCCN2C(=O)[C@H](C)NC(=O)CNC(=O)CNC(=O)[C@H](CO)NC(=O)CNC(=O)CNC(=O)[C@H](CO)NC(=O)[C@H](CCC(=O)O)NC(=O)[C@H](CC(C)C)NC(=O)[C@H](CC(C)C)NC(=O)[C@H](CCCCN)NC(=O)[C@H](CCCCN)NC(=O)[C@H](C(C)C)NC(=O)[C@H]([C@@H](C)CC)NC(=O)[C@H](CCCCN)NC(=O)[C@H](CCCCN)NC(=O)[C@H](Cc2ccc(O)cc2)NC(=O)[C@H](CC(C)C)NC(=O)[C@@H]2CCCN2C(=O)CNC(=O)CNC(=O)[C@@H](NC(=O)CN)CSSC[C@@H](C(N)=O)NC(=O)[C@H](CC(C)C)NC(=O)[C@H](CCCCN)NC(=O)[C@H](CCCCN)NC(=O)[C@H](C(C)C)NC1=O	hemolysis	uninfected human erythrocytes	1 h	HC10	~52 µM
CC[C@H](C)C(=O)N1CCC(NC(=O)Nc2ccc(OC(F)(F)F)c(F)c2)CC1	–	healthy volunteers	oral, 24 mg single dose, 14 (unit not given)	subjects with any AE	66.7%
CCC(CC)OC1C=C(C(=O)OC(C)OC(=O)C(N)C(C)C)CC(NC(=N)N)C1NC(C)=O (mixture of isomers)	–	mice, plasma	po-fed, 10 mg/kg, 24 h	AUC(0-24 h)	1440 ± 338 ng·h/mL
CC[C@H](C)[C@H](NC(=O)[C@H](CC(C)C)NC(=O)[C@H]1CCCN1C(=O)[C@@H](CO)NC(=O)[C@H](N)CC(C)C)C(=O)N[C@@H](Cc1ccccc1)C(=O)N[C@H](C(=O)N[C@H](C(=O)N[C@H](C(=O)N1CCC[C@H]1C(=O)N[C@@H](CC(=O)O)C(=O)N[C@@H](C(=O)O)[C@H](C)O)[C@@H](C)O)[C@@H](C)O)C(C)C	flow cytometry	C57BL/6 mouse, footpad tumour, tumour and popliteal lymph nodes	dose not given	CCR7+ T cell infiltration	no effect
CC[C@H](C)[C@H](NC(=O)[C@H](Cc1ccccc1)NC(=O)[C@@H]1CCCN1C(=O)[C@H](CCCCN)NC(=O)[C@H](CCCCN)NC(=O)[C@H](Cc1ccccc1)NC(=O)[C@H](Cc1ccccc1)NC(=O)[C@@H](C)NC(=O)[C@@H](N)Cc1ccc(O)cc1)C(=O)N[C@@H](CC(C)C)C(=O)O	–	anesthetized rat	intrathecal, 10 nmol/rat, 10 min	minute ventilation	113 ± 14 mL/min
CC(=O)N1CCC(NC(=O)C(N)Cc2c(C)cc(O)cc2C)c2cc(CN3CCc4ccccc4C3)ccc21 (stereo not drawn)	chemical stability	mouse, plasma	30 min	compound remaining	95.3%
C#Cc1c(F)ccc2cc(O)cc(-c3ncc4c(N5CC6CCC(C5)N6C(=O)OCc5ccc(NC(=O)OCCCC)cc5)nc(OC[C@@]56CCCN5C[C@H](F)C6)nc4c3F)c12	chemical stability	simulated intestinal fluid	1 µM, 30 min	compound remaining	90.4%
CSCC[C@@H]1NC(=O)[C@@H]2CSSC[C@H](NC(=O)[C@H](CO)NC(=O)[C@H](C)N)C(=O)N[C@@H](CCCNC(=N)N)C(=O)N[C@@H]([C@@H](C)O)C(=O)N3CCC[C@H]3C(=O)N[C@@H](CCCCN)C(=O)N[C@@H](CC(=O)O)C(=O)N[C@H]3CSSC[C@H](NC(=O)[C@H](CCCCN)NC(=O)[C@H](CCCNC(=N)N)NC(=O)[C@H](CC(N)=O)NC1=O)C(=O)N[C@@H](CCCCN)C(=O)N[C@H]1CSSC[C@H](NC(=O)[C@@H]4CCCN4C(=O)[C@H](CC(=O)O)NC(=O)[C@H](C)NC3=O)C(=O)N[C@@H](C)C(=O)N[C@@H](CCCCN)C(=O)N[C@@H](CCC(=O)O)C(=O)N[C@@H]([C@@H](C)O)C(=O)NCC(=O)N[C@@H](CSSC[C@@H](C(N)=O)NC(=O)[C@H](CCCNC(=N)N)NC(=O)[C@H](CC(N)=O)NC1=O)C(=O)N1CCC[C@H]1C(=O)N[C@@H](Cc1ccc(O)cc1)C(=O)NCC(=O)N[C@@H](CCCCN)C(=O)N2	–	DA rat pristane-induced arthritis, serum	subcutaneous, 0.1 mg/kg single dose at onset, 21 days	Calcium	9.36 mg/dL
O=P1(NCCCl)NCCCO1 (stereo not drawn)	–	rat, plasma	intravenous, 10 mg/kg, together with: ketoconazole 20 mg/kg oral 50 min before	AUC(0-inf)	558 ± 163 ng·h/mL

Some of these lines once more:
Structure (SMILES)	assay	system	setting	endpoint	result
CC[C@H](C)[C@H](NC(=O)[C@H](CC(C)C)NC(=O)[C@H]1CCCN1C(=O)[C@@H](CO)NC(=O)[C@H](N)CC(C)C)C(=O)N[C@@H](Cc1ccccc1)C(=O)N[C@H](C(=O)N[C@H](C(=O)N[C@H](C(=O)N1CCC[C@H]1C(=O)N[C@@H](CC(=O)O)C(=O)N[C@@H](C(=O)O)[C@H](C)O)[C@@H](C)O)[C@@H](C)O)C(C)C	flow cytometry	C57BL/6 mouse, footpad tumour, tumour and popliteal lymph nodes	dose not given	CCR7+ T cell infiltration	no effect
